Assay results pooled from the literature.
Lines come from different studies, so protocols differ. Numbers after ± are the reported error. In brackets after ≈: the same amount, converted by molar mass. Square brackets hold non-standard residues; d marks the D form. Where no end group is shown, it is not given here. * marks the point of attachment.

Molecule | target or system | assay | system | conditions | how to read | endpoint | result
OCCn1c(Cl)nc2cc(Br)c(Br)cc21 | Human immunodeficiency virus 1 | viral replication, inhibitor | TZM-bl | 5 µg/mL |  | inhibition | 88.5%
CCCCCCCCCCCCCCCC(=O)N/N=C/c1ccccc1 | Candida albicans, Aspergillus niger | fungal growth |  |  |  | MIC | 49 µM
melittin |  |  | POPC 100%:POPG 0% LUVs | 25 °C |  | −TΔS of membrane partitioning | -26 kcal/mol
SSASAW | rhesus rotavirus |  | peptide, newborn BALB/c mice, RRV biliary atresia | intraperitoneal, 500 µg at birth and days 1 and 2, 21 days |  | mice with biliary atresia symptoms | 100%
CC(C)C[C@H](NC(=O)[C@H](C)NC(=O)[C@H](CC(C)C)NC(=O)[C@H](CCCCN)NC(=O)[C@H](CCCCN)NC(=O)[C@H](Cc1c[nH]c2ccccc12)NC(=O)[C@H](CC(C)C)NC(=O)[C@H](CC(C)C)NC(=O)[C@H](C)NC(=O)[C@H](CC(C)C)NC(=O)[C@H](CCCCN)NC(=O)[C@H](CCCCN)NC(=O)[C@H](CC(C)C)NC(=O)[C@H](C)NC(=O)[C@H](CC(C)C)NC(=O)[C@H](C)NC(=O)[C@H](CC(C)C)NC(=O)[C@H](CCCCN)NC(=O)[C@@H](N)CCCCN)C(=O)N[C@@H](C)C(=O)N[C@@H](CC(C)C)C(=O)N[C@@H](CCCCN)C(=O)N[C@@H](CCCCN)C(=O)N[C@@H](C)C(N)=O | Pseudomonas aeruginosa | broth microdilution | PAO1 | overnight, 37 °C |  | MIC50 | 4.2 ± 0.92 µM (≈ 11.2 µg/mL)
Cc1oc(-c2ccc(Cl)cc2)nc1CN1CCC(C(=O)NCCCN2CCCC2=O)CC1 | Hepatitis C virus | HCV infection, Gaussia luciferase reporter | Huh7.5.1 reporter cells |  | baseline: 10 µM cyclosporin A, DMSO, negative means inhibition | maximal response | -38.6%
C=C1[C@@H](C)[C@H]2[C@H](Cc3ccccc3)NC(=O)[C@]23[C@H](O)/C=C/[C@](C)(O)C[C@@H](C)C/C=C/[C@H]3[C@@H]1O | Phyllosticta citricarpa |  | PDA plate | 100 µL of 10 mg/mL, 21 days, methanol solution |  | mycelial growth | 3.2 ± 0.2 cm
CCCCCOc1c(OC)cc(NC(C)CCCNC(=O)C(N)CCCNC(=N)N)c2nc(C(C)(C)C)ccc12 (stereo not shown) | Staphylococcus aureus | microbial killing | ATCC33591 MRSA | drug-resistant strain |  | MBC | 20 µg/mL (≈ 35.9 µM)
CC(=NNC(=O)CN1c2c(-c3ccccc3)n[nH]c2-c2ccccc2S1(=O)=O)c1sccc1Cl | HIV-1 | viral replication | PBMC |  |  | EC90 | 61.2 µM
O=C(CN1c2c(n[nH]c2-c2cccc(Cl)c2)-c2ccccc2S1(=O)=O)NN=Cc1ccc(Cl)cc1Cl | HIV-1 | viral replication | PBMC |  |  | EC90 | 76.3 µM
TDVDHVFLRF-OH (C-acid) | Drosophila melanogaster | heart rate | peptide, adult heart | 40 nL injected, 1 µM, 10 min | baseline: DMS | inhibition | 30%
WRWWWW-NH2 (C-amide) | Staphylococcus aureus USA300 |  | peptide, female BALB/c mouse, peritonitis model | intraperitoneal, 7.5 mg/kg, 2 h after infection, given 20 min before infection |  | peritoneal neutrophil influx | inhibited
{FITC}-GFID[pS]D[pT]DVEEE-NH2 (peptide; N-terminal FITC, pS5, pT7, C-terminal amide; FITC = O=C1OC2(c3ccc(O)cc3Oc3cc(O)ccc32)c2ccc(NC(=S)*)cc21; pS = N[C@@H](COP(=O)(O)O)C(=O)O; pT = C[C@@H](OP(=O)(O)O)[C@H](N)C(=O)O) | TOPBP1 641-746 S654A (Homo sapiens, UniProt Q92547) | fluorescence polarisation | peptide | pH 7.5, NaCl 150 mM |  | Kd | 48 ± 6 µM
CCCCCCCOc1c(OC)cc(NC(C)CCCNC(=O)C(N)Cc2cc3ccccc3[nH]2)c2nc(C(C)(C)C)ccc12 (stereo not shown) | Staphylococcus aureus | microbial killing | ATCC33591 MRSA | drug-resistant strain |  | MBC | 10 µg/mL (≈ 16.2 µM)
CC(=NNC(=O)CN1c2c(-c3ccccc3)n[nH]c2-c2ccccc2S1(=O)=O)c1sccc1C | HIV-1 | viral replication | PBMC |  |  | EC90 | > 100 µM
TDVDHVFLRA-NH2 (C-amide) | Drosophila melanogaster | heart rate | adult heart | 40 nL injected, 1 µM, 10 min | baseline: DMS | inhibition | 41%
CCOC(=O)[C@@]1(CS)N[C@@H](C(=O)O)C(C)(C)S1 | Proteus mirabilis | broth microdilution | clinical isolate | compound at 100 mg/L, together with: meropenem |  | MIC | 1 µg/mL
CP(=O)(O)CCC(N)C(=O)O (stereo not shown) | Digitaria sanguinalis |  |  | 500 g/ha, 13 days, DIGSA, post-emergence spray | baseline: untreated (0%), complete kill (100%) | herbicidal activity | 100%
CC(C)C[C@H](NC(=O)[C@H](CCCNC(=N)N)NC(=O)[C@H](C)NC(=O)[C@@H](NC(=O)[C@H](CC(C)C)NC(=O)[C@H](Cc1c[nH]cn1)NC(=O)[C@H](CC(C)C)NC(=O)[C@@H](NC(=O)[C@@H](N)CO)[C@@H](C)O)C(C)C)C(=O)N[C@@H](CCCNC(=N)N)C(=O)NCC(=O)NCC(=O)O | Bacillus megaterium |  | 899 | 37 °C, ≥90% viability decrease |  | MIC | 50 µM
TFFRLFNRSFTGRRRRSVQWCA | Streptococcus sanguis | OD600 | peptide, ATCC 49295, 4 h single-species biofilm | 128 µg/ml, 5 min exposure, OD600 read over 5 h |  | biofilm growth | no effect

Molecule | target or system | assay | system | conditions | how to read | endpoint | result
CC[C@H](C)[C@H](NC(=O)[C@H](CCCCN)NC(=O)[C@H](CCC(=O)O)NC(=O)[C@H](CCCCN)NC(=O)[C@H](CO)NC(=O)[C@H](CCCCN)NC(=O)[C@H](CCCNC(=N)N)NC(=O)[C@H](Cc1ccccc1)NC(=O)[C@H](Cc1ccccc1)NC(=O)[C@H](CC(=O)O)NC(=O)CNC(=O)[C@H](CC(C)C)NC(=O)[C@@H](N)CC(C)C)C(=O)NCC(=O)N[C@@H](CCCCN)C(=O)N[C@@H](CCC(=O)O)C(=O)N[C@@H](Cc1ccccc1)C(=O)N[C@@H](CCCCN)C(=O)N[C@@H](CCCNC(=N)N)C(=O)N[C@H](C(=O)N[C@H](C(=O)N[C@@H](CCC(N)=O)C(=O)N[C@@H](CCCNC(=N)N)C(=O)N[C@H](C(=O)N[C@@H](CCCCN)C(=O)N[C@@H](CC(=O)O)C(=O)N[C@@H](Cc1ccccc1)C(=O)N[C@@H](CC(C)C)C(=O)N[C@@H](CCCNC(=N)N)C(=O)N[C@@H](CC(N)=O)C(=O)N[C@@H](CC(C)C)C(=O)N[C@H](C(=O)N1CCC[C@H]1C(=O)N[C@@H](CCCNC(=N)N)C(=O)N[C@H](C(=O)N[C@@H](CCC(=O)O)C(=O)N[C@@H](CO)C(=O)O)[C@@H](C)O)C(C)C)[C@@H](C)CC)C(C)C)[C@@H](C)CC | Staphylococcus aureus |  | JE2 SAUSA300_1255 mprF transposon mutant | 12.5% TSB | baseline: wild type over mutant | MIC ratio | 2 fold
TRTRVSRLY | rhesus rotavirus |  | peptide, mouse cholangiocytes | 0.5 mM, 18 h, 37 °C | baseline: medium control | viral yield | 70%
O=C(CN1c2c(n[nH]c2-c2cccc(Cl)c2)-c2ccccc2S1(=O)=O)NN=Cc1ccc([N+](=O)[O-])cc1 | HIV-1 | viral replication | PBMC |  |  | EC90 | 20.4 µM
CCCCCCOc1c(OC)cc(NC(C)CCCNC(=O)C(N)CCCN)c2nc(C(C)(C)C)ccc12 (stereo not shown) | Staphylococcus aureus |  | MRSA ATCC 33591 |  |  | MBC | > 20 µg/mL
COC(=O)N[C@H](C(=O)N1CCC[C@H]1c1ncc(-c2ccc(-c3ccc(-c4cnc([C@@H]5CCCN5C(=O)[C@@H](NC(=O)OC)C(C)C)[nH]4)cc3)cc2)[nH]1)C(C)C | hepatitis C virus | viral replication, transient replicon | genotype 1a NS5A Y93C |  |  | EC50 | 0.011 ± 0.004 µM
insulin human | EcoHIV | radial arm water maze | infected C57BL/6J mice | intranasal, dose not given, single dose |  | duration of cognitive benefit | ~24 h
CCN(CC)Cc1cc(Nc2ccnc3cc(Cl)ccc23)ccc1O | Dengue virus 2 | viral replication, plaque | BHK-21 | 72 h |  | EC90 | 2.69 ± 0.47 µM
ADVDHVFLRF-NH2 (C-amide) | Drosophila melanogaster | heart rate | adult heart | 40 nL injected, 1 µM, 10 min | baseline: DMS | inhibition | 108%
O=C(NCc1ccc2c(c1)OCO2)c1ncc(Br)cc1F | Saccharomyces cerevisiae | microbial growth | BY4743 | 72 h |  | MIC | 200 µM
CCCCCOc1c(OC)cc(NC(C)CCCNC(=O)C(N)CC(C)C)c2nc(C(C)(C)C)ccc12 (stereo not shown) | Staphylococcus aureus | microbial growth | ATCC33591 MRSA | drug-resistant strain |  | IC50 | 3.57 µg/mL (≈ 6.94 µM)
CCCCCn1c(=O)[nH]c2cc(C(=O)NCCCN3CCC(C)CC3)ccc2c1=O | Hepatitis C virus | HCV infection, Gaussia luciferase reporter | Huh7.5.1 reporter cells |  | baseline: 10 µM cyclosporin A, DMSO, negative means inhibition | maximal response | -76%
O=C(CN1c2c(n[nH]c2-c2cccc(Cl)c2)-c2ccccc2S1(=O)=O)NN=Cc1ccccc1[N+](=O)[O-] | HIV-1 | viral replication | PBMC |  |  | EC90 | > 100 µM
HVFLRF-NH2 (C-amide) | Drosophila melanogaster | heart rate | adult heart | 40 nL injected, 1 µM, 10 min | baseline: DMS | inhibition | 86%
OC(Cn1cncn1)(Cn1cncn1)c1ccc(F)cc1F | Candida tropicalis | fungal growth, broth microdilution | ATCC 750, fluconazole and amphotericin B resistant | 24 and 48 h |  | MIC99 | > 200 µM
LSTFFRLFNRSFTQGRRRRSVQWCA | Streptococcus gordonii | OD600 | peptide, ATCC 10558, 4 h single-species biofilm | 128 µg/ml, 5 min exposure, OD600 read over 5 h |  | biofilm growth | no effect
DGEA | rhesus rotavirus |  | peptide, mouse cholangiocytes, Hsc70 siRNA | 1 mM | baseline: serum-free control | viral replication | inhibited
COC(=O)[C@H](CO)NC(C)=C1C(=O)C=C2Oc3c(C(C)=O)c(O)c(C)c(O)c3[C@@]2(C)C1=O | Candida tropicalis | broth microdilution | ATCC 750 fluconazole and amphotericin B resistant | 24 and 48 h |  | MIC99 | 6.7 µM (≈ 2.98 µg/mL)
CCCCCCOc1c(OC)cc(NC(C)CCCNC(=O)C(N)C(C)CC)c2nc(C(C)(C)C)ccc12 (stereo not shown) | Staphylococcus aureus | microbial killing | ATCC33591 MRSA | drug-resistant strain |  | MBC | > 20 µg/mL
CCCCCCCCCCCCCCCCCC(=O)N/N=C/c1ccccc1 | Candida albicans, Aspergillus niger | fungal growth |  |  |  | MIC | 22.4 µM
CC1CCCCN1CCCNC(=O)c1ccc2c(=O)n(CCc3ccccc3)c(=O)[nH]c2c1 (stereo not shown) | Hepatitis C virus | HCV infection, Gaussia luciferase reporter | Huh7.5.1 reporter cells |  | baseline: 10 µM cyclosporin A, DMSO, negative means inhibition | maximal response | -67.8%

For quick reference, copied from above:
Molecule | target or system | assay | system | conditions | how to read | endpoint | result
TDVDHVFLRF-OH (C-acid) | Drosophila melanogaster | heart rate | peptide, adult heart | 40 nL injected, 1 µM, 10 min | baseline: DMS | inhibition | 30%
O=C(NCc1ccc2c(c1)OCO2)c1ncc(Br)cc1F | Saccharomyces cerevisiae | microbial growth | BY4743 | 72 h |  | MIC | 200 µM
ADVDHVFLRF-NH2 (C-amide) | Drosophila melanogaster | heart rate | adult heart | 40 nL injected, 1 µM, 10 min | baseline: DMS | inhibition | 108%
CCCCCCCOc1c(OC)cc(NC(C)CCCNC(=O)C(N)Cc2cc3ccccc3[nH]2)c2nc(C(C)(C)C)ccc12 (stereo not shown) | Staphylococcus aureus | microbial killing | ATCC33591 MRSA | drug-resistant strain |  | MBC | 10 µg/mL (≈ 16.2 µM)
CC(=NNC(=O)CN1c2c(-c3ccccc3)n[nH]c2-c2ccccc2S1(=O)=O)c1sccc1C | HIV-1 | viral replication | PBMC |  |  | EC90 | > 100 µM
CCCCCn1c(=O)[nH]c2cc(C(=O)NCCCN3CCC(C)CC3)ccc2c1=O | Hepatitis C virus | HCV infection, Gaussia luciferase reporter | Huh7.5.1 reporter cells |  | baseline: 10 µM cyclosporin A, DMSO, negative means inhibition | maximal response | -76%
